Measurements collected from several papers.
Organism: Staphylococcus aureus

For `S=C(NCc1ccccn1)NCc1ccccn1`, the inhibition zone was 19 mm (microbial growth, well diffusion; 20 µg/mL).
`CC[C@H](C)[C@H](NC(=O)[C@H](CCCCN)NC(=O)[C@H](CCCCN)NC(=O)[C@H](CC(C)C)NC(=O)[C@H](CCCCN)NC(=O)[C@H](CCC(=O)O)NC(=O)[C@H](CCCCN)NC(=O)[C@@H](NC(=O)[C@H](CCCCN)NC(=O)[C@H](CC(N)=O)NC(=O)[C@H](CCCNC(=N)N)NC(=O)[C@H](Cc1ccccc1)NC(=O)[C@H](CCCCN)NC(=O)[C@H](CCCNC(=N)N)NC(=O)[C@H](CC(C)C)NC(=O)[C@H](CCCNC(=N)N)NC(=O)[C@H](CCCCN)NC(=O)[C@H](CCCNC(=N)N)NC(=O)[C@@H](N)CC(C)C)[C@@H](C)CC)C(=O)NCC(=O)N[C@@H](CCC(N)=O)C(=O)N[C@@H](CCCCN)C(=O)N[C@H](C(=O)N[C@@H](CCC(N)=O)C(=O)NCC(=O)N[C@@H](Cc1ccccc1)C(=O)N[C@H](C(=O)N1CCC[C@H]1C(=O)N[C@@H](CCCCN)C(=O)N[C@@H](CC(C)C)C(=O)O)C(C)C)[C@@H](C)CC` gave a lethal concentration of 1.46 µM (inhibition zone; MRSA P1374).
The intracellular pH of `O=C(c1ccccc1O)c1[nH]c(Cl)c(Cl)c1-n1c(C(=O)c2ccccc2O)cc(Cl)c1Cl` is reported as 7.5 (NCTC 8325; 1 × MIC, 10 min).
Under “time to eradication”, `CC(=NNC(=N)N)c1nnn(-c2ccc(C#CC3(O)CCCCC3)cc2)c1C` is recorded as at most 24 h (time-kill; MRSA; 4 × MIC, 37 °C).
For `Cc1cc(=O)nc(NC(=O)NCCCCCCNC(=O)NCCCCCCNC(=O)OCCOCCOCCOCCOCCOCCOCC(=O)N[C@@H](CC(C)C)C(=O)N[C@@H](CCCCN)C(=O)N[C@@H](CC(C)C)C(=O)N[C@@H](CC(C)C)C(=O)N[C@@H](CCCCN)C(=O)N[C@@H](CCCCN)C(=O)N[C@@H](CC(C)C)C(=O)N[C@@H](CC(C)C)C(=O)N[C@@H](CCCCN)C(=O)N[C@@H](CCCCN)C(=O)N[C@@H](CC(C)C)C(=O)N[C@@H](CC(C)C)C(=O)N[C@@H](CCCCN)C(=O)N[C@@H](CC(C)C)C(=O)N[C@@H](CC(C)C)C(N)=O)[nH]1`, the LC99.9 was 3.7 µM (MSSA RN 4220, RPMI medium; 24 h, 37 °C).
For `[Cl-].[Cl-].[Ru+2].c1ccc2nc3c4cccnc4c4ncccc4c3nc2c1.c1ccncc1.c1ccncc1.c1ccncc1.c1ccncc1`, the MIC90 was 16 µM (MRSA ATCC 43300; LED irradiation 470 nm).
For `CC[C@H](C)[C@H](NC(=O)[C@H](CCN)NC(=O)CCCCCCCCCCCNC(=O)CCCCCOC(=O)c1cn(C2CC2)c2cc(N3CCNCC3)c(F)cc2c1=O)C(=O)N[C@@H](CCN)C(=O)N[C@H](Cc1ccccc1)C(=O)N[C@@H](CC(C)C)C(=O)N[C@@H](CCN)C(=O)N[C@@H](C(=O)N[C@@H](CC(C)C)C(=O)N[C@@H](CO)C(N)=O)C(C)C`, the bacterial survival was 24.6% (optical density; 50 µM, 12 h, 37 °C).
`CCCCCCCCCCCCCC(=O)N[C@H](CCN)C(=O)N[C@@H]1C(=O)N[C@@H](CCN)C(=O)N[C@@H](CC(C)C)C(=O)N[C@@H](CCN)C(=O)N[C@H](Cc2ccccc2)C(=O)N[C@@H](CC(C)C)C(=O)N[C@@H](CCN)C(=O)N[C@H](CCN)C(=O)N[C@@H](C(C)C)C(=O)N[C@@H](CC(=O)O)C(=O)O[C@@H]1C` — result for “reduction in bacterial burden”: 1.79 log10 CFU (ATCC BAA-44, MRSA, neutropenic mice, thigh infection; subcutaneous, 20 mg/kg once daily; reference: vehicle).
`CC(C)C[C@H](NC(=O)[C@H](CC(=O)O)NC(=O)[C@H](CO)NC(=O)[C@@H](NC(=O)[C@H](CCC(=O)O)NC(=O)[C@H](CC(=O)O)NC(=O)[C@@H]1CCCN1C(=O)[C@@H](N)CC(C)C)C(C)C)C(=O)N[C@@H](CCC(=O)O)C(=O)O` gave a growth inhibition of 36.4% (OD600; ATCC 25923; concentration not given, 18 to 22 h, 37 °C, unheated).
`Oc1cc(F)ccc1Oc1ccccc1` has a post-antibiotic effect of 0.25 h (RN4220; 4 x MIC, 1 h exposure, 37 °C).
With `CC(C)C1=C(OC(=O)Cc2ccccc2)C(=O)C2=C(C=C[C@H]3C(C)(C)CCC[C@]23C)C1=O` the MBC was under 72.2 µM (CIP 106760 MRSA).
`C=Cc1cc(OC)c2c(c1)c(=O)oc1c2cc(OC)c2c(O)ccc([C@@H]3O[C@H](C)[C@H](O)[C@@](C)(O)[C@H]3O)c21` gave a biofilm eradication of 55% (crystal violet; MRSA USA300; 0.5 × MIC, 24 h).
For `CCOC(=O)c1cnc(N/N=C/c2c(-c3ccc(Br)cc3)nc3ncccn23)s1`, the inhibition zone was 15 mm (microbial growth, well diffusion; ATCC23235; 100 µg/mL).
`CC[C@H](C)[C@H](NC(=O)[C@H](CCCCN)NC(=O)[C@H](CCCCN)NC(=O)[C@H](Cc1c[nH]c2ccccc12)NC(=O)[C@H](CC(N)=O)NC(=O)[C@@H](N)C(C)C)C(=O)N[C@@H](CC(C)C)C(=O)NCC(=O)N[C@@H](CCCCN)C(=O)N[C@H](C(=O)N[C@H](C(=O)N[C@@H](CCCCN)C(=O)N[C@H](C(=O)N[C@H](C(=O)N[C@@H](CCCCN)C(N)=O)C(C)C)C(C)C)[C@@H](C)CC)[C@@H](C)CC` gave an LC99.9 of 3.7 µM (MRSA AMC 201, RPMI medium; 24 h, 37 °C).
For `[Ag+].[S-]c1ccccn1.c1ccc(P(c2ccccc2)c2ccccc2)cc1.c1ccc(P(c2ccccc2)c2ccccc2)cc1`, “inhibition zone diameter” read “inactive” (MTCC 740; 50 mg/mL, 18 to 24 h).
With `C[C@@H](c1ccccc1)N(CC(N)=O)C(=O)CN(C(=O)CN(CCCCN)C(=O)CN(C(=O)CN(C(=O)CN(CCCCN)C(=O)CN(C(=O)CN(C(=O)CN(CCCCN)C(=O)CN(C(=O)CN(C(=O)CNCCCCN)[C@@H](C)c1ccccc1)[C@@H](C)c1ccccc1)[C@@H](C)c1ccccc1)[C@@H](C)c1ccccc1)[C@@H](C)c1ccccc1)[C@@H](C)c1ccccc1)[C@@H](C)c1ccccc1` the abscess size was 4.6 mm² (USA300 LAC, mouse, abscess model; maximum tolerated dose, 1 h post infection).
